# Results pooled from the literature.
# Numbers after ± are the reported error.
# RIGI: RIGI 2-925 (Homo sapiens, UniProt O95786)
# Chain of UniProt O95786 (whole entry, looked up): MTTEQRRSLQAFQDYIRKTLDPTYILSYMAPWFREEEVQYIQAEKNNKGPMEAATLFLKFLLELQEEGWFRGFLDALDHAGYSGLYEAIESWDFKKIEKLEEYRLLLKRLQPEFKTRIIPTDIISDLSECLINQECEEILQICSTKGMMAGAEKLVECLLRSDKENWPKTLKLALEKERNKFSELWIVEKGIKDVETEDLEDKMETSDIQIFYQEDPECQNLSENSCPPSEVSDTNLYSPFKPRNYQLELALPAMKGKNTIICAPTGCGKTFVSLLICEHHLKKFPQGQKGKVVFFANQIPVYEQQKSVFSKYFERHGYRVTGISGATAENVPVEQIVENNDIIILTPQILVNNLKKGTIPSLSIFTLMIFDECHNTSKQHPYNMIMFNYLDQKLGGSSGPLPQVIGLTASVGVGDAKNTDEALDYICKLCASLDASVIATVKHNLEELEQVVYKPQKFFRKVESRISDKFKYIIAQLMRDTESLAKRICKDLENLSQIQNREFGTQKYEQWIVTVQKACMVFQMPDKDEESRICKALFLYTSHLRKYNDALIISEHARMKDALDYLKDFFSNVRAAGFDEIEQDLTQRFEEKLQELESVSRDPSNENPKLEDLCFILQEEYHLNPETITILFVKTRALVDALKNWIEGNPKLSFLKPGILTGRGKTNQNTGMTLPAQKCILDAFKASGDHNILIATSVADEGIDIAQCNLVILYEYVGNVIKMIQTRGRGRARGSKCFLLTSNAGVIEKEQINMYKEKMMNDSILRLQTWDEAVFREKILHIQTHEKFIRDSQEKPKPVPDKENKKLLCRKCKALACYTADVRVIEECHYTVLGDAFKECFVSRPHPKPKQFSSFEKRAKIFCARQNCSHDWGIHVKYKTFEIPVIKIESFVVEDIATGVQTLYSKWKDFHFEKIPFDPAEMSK
# TFAM 43-221 del222-246: TFAM 43-221 del222-246 (Homo sapiens, UniProt Q00059)
# Chain of UniProt Q00059 (whole entry, unmodified, looked up): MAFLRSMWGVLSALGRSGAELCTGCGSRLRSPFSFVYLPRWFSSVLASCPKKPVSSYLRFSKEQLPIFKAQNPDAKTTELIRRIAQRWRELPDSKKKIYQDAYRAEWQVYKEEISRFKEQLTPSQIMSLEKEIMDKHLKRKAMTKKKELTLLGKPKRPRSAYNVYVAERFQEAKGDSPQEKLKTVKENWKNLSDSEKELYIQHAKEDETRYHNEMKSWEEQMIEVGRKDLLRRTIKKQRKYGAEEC
# T1: NAB3/NRD1 NAB3 191-565; NRD1 1-548 (Saccharomyces cerevisiae); chain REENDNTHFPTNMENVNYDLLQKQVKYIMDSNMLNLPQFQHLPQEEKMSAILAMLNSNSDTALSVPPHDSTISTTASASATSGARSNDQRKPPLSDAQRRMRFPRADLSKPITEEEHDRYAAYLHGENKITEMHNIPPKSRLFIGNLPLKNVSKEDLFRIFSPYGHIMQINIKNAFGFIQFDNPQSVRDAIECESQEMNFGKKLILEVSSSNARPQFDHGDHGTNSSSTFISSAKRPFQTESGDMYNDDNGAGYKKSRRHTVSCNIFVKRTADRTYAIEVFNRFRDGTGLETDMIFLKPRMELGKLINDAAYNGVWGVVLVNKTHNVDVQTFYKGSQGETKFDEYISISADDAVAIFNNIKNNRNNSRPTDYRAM; chain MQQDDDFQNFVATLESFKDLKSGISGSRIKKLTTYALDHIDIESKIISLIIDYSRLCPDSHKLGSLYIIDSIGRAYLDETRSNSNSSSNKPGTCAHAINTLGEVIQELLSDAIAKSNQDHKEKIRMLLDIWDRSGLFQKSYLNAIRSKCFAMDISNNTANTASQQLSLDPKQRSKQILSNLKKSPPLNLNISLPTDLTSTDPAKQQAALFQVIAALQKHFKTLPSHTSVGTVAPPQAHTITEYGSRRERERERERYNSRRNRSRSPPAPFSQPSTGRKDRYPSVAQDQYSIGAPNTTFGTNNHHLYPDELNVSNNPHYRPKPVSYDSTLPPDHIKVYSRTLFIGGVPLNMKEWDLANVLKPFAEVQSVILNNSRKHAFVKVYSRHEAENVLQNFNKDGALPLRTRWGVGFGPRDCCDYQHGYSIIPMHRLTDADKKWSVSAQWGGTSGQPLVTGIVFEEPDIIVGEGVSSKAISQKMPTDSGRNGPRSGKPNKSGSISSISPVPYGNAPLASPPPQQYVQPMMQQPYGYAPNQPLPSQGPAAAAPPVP
# Chain of UniProt Q57977 (whole entry, looked up): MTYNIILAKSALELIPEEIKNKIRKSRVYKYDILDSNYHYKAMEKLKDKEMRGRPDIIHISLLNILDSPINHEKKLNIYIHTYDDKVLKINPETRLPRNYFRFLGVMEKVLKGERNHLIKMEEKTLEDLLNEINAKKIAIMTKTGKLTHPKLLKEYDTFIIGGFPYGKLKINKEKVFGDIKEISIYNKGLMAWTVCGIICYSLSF
# Chain of UniProt O00411 (whole entry, looked up): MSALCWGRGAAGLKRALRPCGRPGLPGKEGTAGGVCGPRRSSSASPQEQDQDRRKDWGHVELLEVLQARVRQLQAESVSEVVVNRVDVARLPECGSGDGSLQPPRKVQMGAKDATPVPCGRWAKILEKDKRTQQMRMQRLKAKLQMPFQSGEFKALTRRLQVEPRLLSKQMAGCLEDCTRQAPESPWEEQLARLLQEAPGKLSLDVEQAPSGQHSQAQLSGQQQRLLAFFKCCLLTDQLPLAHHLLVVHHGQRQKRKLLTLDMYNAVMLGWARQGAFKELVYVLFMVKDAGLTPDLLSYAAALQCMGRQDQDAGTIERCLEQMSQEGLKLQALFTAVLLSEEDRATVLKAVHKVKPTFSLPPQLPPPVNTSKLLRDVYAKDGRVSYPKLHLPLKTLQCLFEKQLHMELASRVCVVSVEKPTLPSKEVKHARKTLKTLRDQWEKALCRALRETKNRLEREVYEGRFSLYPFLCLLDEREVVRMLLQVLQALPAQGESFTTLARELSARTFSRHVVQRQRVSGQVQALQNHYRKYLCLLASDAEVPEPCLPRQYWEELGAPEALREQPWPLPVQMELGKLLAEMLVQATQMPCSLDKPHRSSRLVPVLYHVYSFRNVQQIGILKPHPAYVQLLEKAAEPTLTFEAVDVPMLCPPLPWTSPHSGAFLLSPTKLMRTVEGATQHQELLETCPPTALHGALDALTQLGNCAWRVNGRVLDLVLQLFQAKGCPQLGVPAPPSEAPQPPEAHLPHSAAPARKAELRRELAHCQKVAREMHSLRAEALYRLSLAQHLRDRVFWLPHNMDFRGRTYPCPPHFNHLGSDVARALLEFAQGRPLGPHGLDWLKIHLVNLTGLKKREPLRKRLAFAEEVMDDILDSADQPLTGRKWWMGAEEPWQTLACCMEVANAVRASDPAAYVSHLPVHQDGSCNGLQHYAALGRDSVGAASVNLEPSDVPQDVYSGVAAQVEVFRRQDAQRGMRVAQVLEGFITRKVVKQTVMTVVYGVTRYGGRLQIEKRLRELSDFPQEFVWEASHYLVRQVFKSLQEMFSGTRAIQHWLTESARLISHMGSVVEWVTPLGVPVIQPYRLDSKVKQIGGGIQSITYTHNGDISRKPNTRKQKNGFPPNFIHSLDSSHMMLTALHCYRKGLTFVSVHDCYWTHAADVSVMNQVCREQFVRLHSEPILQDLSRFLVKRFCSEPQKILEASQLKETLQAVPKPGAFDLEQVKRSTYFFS
# Chain of UniProt P35222 (whole entry, looked up): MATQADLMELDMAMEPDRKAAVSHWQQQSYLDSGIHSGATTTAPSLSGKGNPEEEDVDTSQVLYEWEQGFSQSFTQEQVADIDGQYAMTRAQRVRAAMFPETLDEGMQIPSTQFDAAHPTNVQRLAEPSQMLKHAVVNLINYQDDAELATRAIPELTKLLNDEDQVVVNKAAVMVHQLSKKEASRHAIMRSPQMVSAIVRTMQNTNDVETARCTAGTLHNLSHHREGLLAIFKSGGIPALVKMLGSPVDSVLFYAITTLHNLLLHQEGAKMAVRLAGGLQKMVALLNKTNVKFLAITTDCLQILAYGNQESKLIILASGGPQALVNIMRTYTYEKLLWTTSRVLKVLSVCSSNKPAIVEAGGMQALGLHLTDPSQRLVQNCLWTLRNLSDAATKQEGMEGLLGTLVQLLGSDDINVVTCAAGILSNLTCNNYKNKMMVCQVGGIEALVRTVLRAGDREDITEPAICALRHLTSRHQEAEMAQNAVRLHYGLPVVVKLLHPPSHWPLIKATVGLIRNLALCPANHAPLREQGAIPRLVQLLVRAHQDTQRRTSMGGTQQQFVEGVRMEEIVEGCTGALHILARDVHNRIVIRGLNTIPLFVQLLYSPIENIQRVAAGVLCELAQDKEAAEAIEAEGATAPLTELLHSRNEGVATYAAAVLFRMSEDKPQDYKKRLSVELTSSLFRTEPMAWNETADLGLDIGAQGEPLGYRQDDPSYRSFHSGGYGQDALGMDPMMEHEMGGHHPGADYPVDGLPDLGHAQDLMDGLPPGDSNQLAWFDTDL
# Chain of UniProt Q9ES57 (whole entry, looked up): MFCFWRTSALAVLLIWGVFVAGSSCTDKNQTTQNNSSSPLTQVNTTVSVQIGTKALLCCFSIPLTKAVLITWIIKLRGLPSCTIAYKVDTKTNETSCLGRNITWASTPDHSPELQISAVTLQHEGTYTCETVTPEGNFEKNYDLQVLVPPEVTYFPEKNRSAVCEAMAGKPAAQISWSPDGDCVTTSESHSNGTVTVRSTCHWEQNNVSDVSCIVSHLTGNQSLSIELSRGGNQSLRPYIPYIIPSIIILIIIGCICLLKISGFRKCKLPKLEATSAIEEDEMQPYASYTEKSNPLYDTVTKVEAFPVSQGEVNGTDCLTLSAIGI
Sequence,target,test,system,conditions,Kd [nM]
CGGGATATCCCG (dsDNA),"Tardbp 101-265 (Mus musculus, UniProt Q921F2)",filter binding,"double-stranded DNA, one strand shown",,1320
"GGACGUACGUUUCGACGUACGUCC (structured RNA; 5'-OH, hairpin, 10 bp)",RIGI,MST,folded RNA,together with: AMP-CP 0.4 mM; MgCl2.5 mM,12.3 ± 3.2
AAUCUUAGUAAUC (ssRNA),"T1, NAB3/NRD1 NAB3 191-565; NRD1 1-548 (Saccharomyces cerevisiae)",fluorescence anisotropy,RNA,,5.3 ± 0.6
"GGGACGCGUGGUACCAGGCCGAUCUAUGGACGCUAUAGGCACACCGGAUACUUUAACGAUUGGCUAAGCUUCCGCGGGGAUC (structured RNA; stem-loops, bulges, tri-bridged)","CTNNB1 138-693 (Homo sapiens, UniProt P35222)",SPR,folded RNA,,4.56
ACACCGCTGCTAACCCCATACCCCG (dsDNA; 25 bp duplex),"TFAM 43-246 (Homo sapiens, UniProt Q00059)",FRET,"double-stranded DNA, one strand shown","apparent, cooperative Hill model",7.4 ± 0.9
GACGATAGCGGTGACGGCACAGACGTTTATTACCATTATGCCTATGTAACGTATGCCGCTTCCGTCCGTCGCTC (ssDNA),"Cd200r1 26-238 (Mus musculus, UniProt Q9ES57)",nitrocellulose filter binding,single-stranded DNA,"estimated, weak, together with: Mg2+ 1 mM",> 1000
"GGACGUACGUUUCGACGUACGUCC (structured RNA; 5'-triphosphate, hairpin, 10 bp)",RIGI,MST,folded RNA,together with: AMP-CP 0.4 mM; MgCl2.5 mM,2.5 ± 1.3
TGTGTTAGTTGGGGGGTGACTGTTAAAAGTGCATACCGCCAAAAGATAAAA (dsDNA),"POLRMT 43-1230 (Homo sapiens, UniProt O00411)",fluorescence anisotropy,"double-stranded DNA, one strand shown",Hill fit,10.5
GTGTTAGTTGGGGGGTGACTGTTAA (dsDNA; 25 bp duplex),TFAM 43-221 del222-246,FRET,"double-stranded DNA, one strand shown","apparent, ligand depletion model",9.8 ± 1.3
"RNA 1 GCAUGCGACCUCUGUUUGA / RNA 2 UCAAACAGAGGUCGCAUGC (dsRNA; 5'-triphosphate, duplex, 19 bp)",RIGI,MST,double-stranded RNA,no nucleotide,1.3 ± 0.5
AGCAGGAGCAGGAACAGGATGAACA (dsDNA; 25 bp duplex),TFAM 43-221 del222-246,FRET,"double-stranded DNA, one strand shown","apparent, cooperative Hill model",8.1 ± 1.7
"RNA 1 GCAUGCGACCUCUGUUUGA / RNA 2 UCAAACAGAGGUCGCAUGC (dsRNA; 5'-OH, duplex, 19 bp)",RIGI,MST,double-stranded RNA,together with: ADP-AlFx,11 ± 8
UUUUUUUU (ssRNA),"nep1 1-205 (Methanocaldococcus jannaschii, UniProt Q57977)",fluorescence quenching,RNA,,25600 ± 5100

# Repeated from above:
Sequence,target,test,system,conditions,Kd [nM]
"RNA 1 GCAUGCGACCUCUGUUUGA / RNA 2 UCAAACAGAGGUCGCAUGC (dsRNA; 5'-triphosphate, duplex, 19 bp)",RIGI,MST,double-stranded RNA,no nucleotide,1.3 ± 0.5
AGCAGGAGCAGGAACAGGATGAACA (dsDNA; 25 bp duplex),TFAM 43-221 del222-246,FRET,"double-stranded DNA, one strand shown","apparent, cooperative Hill model",8.1 ± 1.7
